Experimental data of several laboratories.
A part holds a random share of what one study measured. Changes are numbered by the printed parent chain.

Set 1
Target: Sal-like protein 4, full length isoform A (SALL4, Homo sapiens, UniProt Q9UJQ4, residues 1-1053)
Chain of UniProt Q9UJQ4 (whole entry, looked up): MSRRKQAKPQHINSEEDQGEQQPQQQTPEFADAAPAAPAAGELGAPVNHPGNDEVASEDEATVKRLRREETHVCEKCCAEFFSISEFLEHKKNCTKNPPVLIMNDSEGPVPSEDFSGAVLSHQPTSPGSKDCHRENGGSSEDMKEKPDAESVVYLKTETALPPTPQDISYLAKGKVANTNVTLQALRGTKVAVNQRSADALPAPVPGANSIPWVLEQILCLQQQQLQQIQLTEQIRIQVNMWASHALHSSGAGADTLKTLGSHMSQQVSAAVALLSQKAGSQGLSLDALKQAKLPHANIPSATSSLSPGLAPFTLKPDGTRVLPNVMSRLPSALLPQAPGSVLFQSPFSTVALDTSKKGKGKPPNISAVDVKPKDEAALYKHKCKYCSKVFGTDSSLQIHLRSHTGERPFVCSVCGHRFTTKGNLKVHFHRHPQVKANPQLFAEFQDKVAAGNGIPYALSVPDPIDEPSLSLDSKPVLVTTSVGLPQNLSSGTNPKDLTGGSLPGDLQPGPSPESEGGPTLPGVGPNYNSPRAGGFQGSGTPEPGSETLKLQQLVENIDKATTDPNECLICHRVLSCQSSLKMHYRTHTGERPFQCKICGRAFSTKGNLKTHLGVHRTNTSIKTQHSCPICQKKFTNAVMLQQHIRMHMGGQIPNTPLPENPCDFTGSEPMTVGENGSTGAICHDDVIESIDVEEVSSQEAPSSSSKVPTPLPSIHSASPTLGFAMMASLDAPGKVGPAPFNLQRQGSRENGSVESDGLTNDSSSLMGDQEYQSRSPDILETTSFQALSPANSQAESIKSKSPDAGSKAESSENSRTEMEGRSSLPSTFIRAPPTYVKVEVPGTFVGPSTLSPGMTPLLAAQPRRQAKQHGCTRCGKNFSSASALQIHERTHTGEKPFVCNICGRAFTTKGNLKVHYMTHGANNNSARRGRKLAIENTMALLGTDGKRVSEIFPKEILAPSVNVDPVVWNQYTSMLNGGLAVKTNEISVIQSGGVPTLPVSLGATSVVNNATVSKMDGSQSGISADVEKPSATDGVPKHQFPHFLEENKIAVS
Method: universal PBM
Molecule type: double-stranded DNA, one strand shown
Sample: in vitro
Concentration: 600 nM
Setting: 8-mer, flanks averaged, mean of replicates
Direction: higher = stronger binding
Strand	E-score
GCTGGTCC	-0.263
GCCTATTA	0.203
GAGGTCCA	-0.237
CGGGAGCC	-0.382
AATGGCTA	0.158
AACGACAT	0.12
CAAATAGA	0.175
CCCTCTCC	-0.283
CCATACCC	-0.16
AGAATACG	0.167
GCACAGTA	0.0442
CGGACGAC	-0.289
TCCAAAAA	0.284
CCGAATCG	-0.156
CGTTGTTC	-0.0267
CCCGGGCC	-0.46
ATGCACCA	0.0615
ATGACTTG	0.101
AAAGGAGC	-0.0257
ACGAGTCT	0.0296
GAATTAGC	0.0497
GTAGCCCA	-0.168
CTCCTGCA	-0.115
CACCGTAG	-0.113
GGCCACAC	-0.169

Set 2
Target: TAR DNA-binding protein 43, full length, His tag (TARDBP, Homo sapiens, UniProt Q13148, residues 1-414)
Method: RNA Bind-n-Seq
Molecule type: RNA
Sample: in vitro
Concentration: 20 nM
Setting: 6-mer, flanks averaged, single round
Added: 150 mM LiCl
Baseline: input library
Direction: higher = stronger binding
Strand	6-mer enrichment (R)
AUUUUG	1.25
GAGACC	0.873
CCCUUA	1.11
UUCCUG	0.925
UCGGAC	1.04
ACUUUG	0.945
CGUGCA	0.941
UCAUCC	0.852
UUCGCG	0.938
CGGCGG	1.05
UGUCGG	1.15
GGCUGA	1.02
GAAACA	0.811
AUAAGU	0.974
GUAUGC	1.26
AGACAU	0.838
CUUUGC	0.976
UCCGAG	0.901
AAAAGC	0.851
GGGCAG	1.16
CUCUGA	0.81
UACAGG	0.893
AAUACA	0.853
UAGUCG	0.946
GGACAU	0.964

Set 3
Target: RNA binding protein fox-1 homolog 2, RRM domain, GST-SBP tag (RBFOX2, Homo sapiens, UniProt O43251-10, residues 100-194)
Method: RNA Bind-n-Seq
Molecule type: RNA
Sample: in vitro
Concentration: 365 nM
Setting: natural RNA segment, single round, ends assumed
Baseline: no-protein control
Direction: higher = stronger binding
Shared flanks, not repeated: GGGAGUUCUACAGUCCGACGAUC … UGGAAUUCUCGGGUGCCAA
Residues (chain): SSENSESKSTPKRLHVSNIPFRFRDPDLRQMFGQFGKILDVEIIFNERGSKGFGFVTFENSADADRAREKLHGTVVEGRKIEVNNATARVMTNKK
Strand	RBNS enrichment (R)
GACAAAUGAGUUGAUGGUCUAAAUUAUAAGAUUUGUGUCACAUUAUCUUGAUGCCAGUUUGCCAAAUCUGAUACUGUGAAAAAAUUUGAUAGCUUUUCUAAUGUCUGACU	0.588
UAGCUGCUAGGCAGACUGUUAAGUAUUAGGGGAAAAUUGCUCUUAAAUUUUCCUAGCUGUAAGCUUAAGUCUCCUUUGUAUCCCUCUGUUGGUGGGGAAAGGUGUCUUUC	0.868
CUGACCCUUGAGUUAAUUUUAGCACAACUCAUUCUUCAGUGCCUCAUUAUGAAAGACAAAAAGCAUCACAAUAAGGCUUCCAGGUAGCCCUGUUCCCUAAUAGAAACAUU	0.548
AGCUCUUCUAGCUGAAUCUGAAAUAUUACCCCUUGUCUAGAAAAAGGGGGGCAGUCAGAACAGCUGUUCCCCACUCCGUGGUUCUCAAAAUCAUAAACCAUGGCUACUCU	0.305
GUAGCCUAAGUAGGUCGUGGCAAGGGCCUGAGGCCUGUUCCUCACAGGCUUCCAGGUUAGGCACUGUGAAUAGGCUCAGCUCCUCUAGAGAGCUGAAGCCAUCUGGUUCU	0.382
GCAUGUAUUAUUUCUCCCAUGUAAGGACAAAGGGACAGAUUAUUAUUGUUAUUUCUGAGACAGAGUCUUGCUCUGUAGCUCAGGCUGGAGUGCAGUGGCUCAAUCUCAGC	4.72
CCAGAGAGGAGAGCCACUUACUGGCUUGUUCAGCUGCUUUCUUACAGAACAUAGCCUGCCAGCUCAUGGGUGCCAGUGGUUCUCAACUUGUGAGUUGCAACUCCUUUGUC	0.384
GUUGUUCUUAUUCCUAGGUCAGGGUAGUACAAAUUACGGAAAGAGCCAGCGACGUGGUGGUCAUCAGAAUAACUACAAGCCAUACUGAGAGGCAGCAGGAGCGGCCGAGU	0.718
CUCUCCCCUUGGUCACCUCUGGAACAAACAGGUUCCUUCCCUGGGGUCCAUAGGGAGGGACCUCAUGGGGCUGUCACAUCCUAGCAACCUUCUUAGCCUCCUUCCUUCCU	0.582
ACCACUACACUUGUAUGGUUGAGUGUUUAAAAUGUCUAUCACCCUCACUUCAGAGUGUGACUCUUUAAAUAUUAAAAUAGAUACUAACUGUUCAUAGAACAGGCCGAUUC	0.228
GGUGUCACAGUGUUUGGUUCUUUUGUUUUGUUUUUUAACACUUGUCUCCCCUCAUACACAAAAGUACAAUAUGAAGCCUUCAUUUAAUCUCUGCAGUUCAUCUCAUUUCA	0.713
ACCUUCUUUGGGCCUCGGCCUCCUAAUCUGGGUAAUGGGGAGGACUUCAUUGGCAUUGUUAGUCCCACAGGCCAAGGAUAAGGUUGAAAUGAGACGGCUUGUGUGUGAAA	0.789

Set 4
Target: Fragile X messenger ribonucleoprotein 1, C-terminal low-complexity region (Fmr1, Mus musculus, UniProt P35922)
Method: RNA Bind-n-Seq
Molecule type: RNA
Sample: in vitro
Concentration: 200 nM
Setting: whole 134-nt RNA, ends assumed
Added: 150 mM KCl
Baseline: input library
Direction: higher = stronger binding
Shared flanks, not repeated: GGGAGUUCUACAGUCCGACGAUC … UGGAAUUCUCGGGUGUCAAGG
Strand	log2 enrichment
GUGGACAACGCGUACUGGCUGUGGACUUUCCAGGGACGCCUCCUGCAGAAGAACAACAAGGACCGCUUCUGCCAGCUGCUGUGGCGGCCC	-1.1
AAGUCCUGUGCUACACAUCGUAUGUACCGAAUCGGGGCCCCGGCCCCGGCCCCGGGGAAAGUAUUAUGUUACGCCGUUCGGAUCUGCACU	-0.771
AGUCCUGUGCUACACAUCGUAUGUACCGAAUCGGAAAAAGGGAAAAAGGAAAAAGGGAAAGUAUUAUGUUACGCCGUUCGGAUCUGCACU	-0.816
AGUCCUGUGCUACACAUCGUAUGUACCGAAUCGGGGCCCCGGGCCCCGGGGCCCCGGAAAGUAUUAUGUUACGCCGUUCGGAUCUGCACU	-0.0567
ACCAUGCAGAAAGGCAUCUUUGGGAAGUGGGGCAAGGGGGGGAUAGGGAGGGGGGUAACACUUUGGGAACAGGUGGUCCCAGGUCGUUUC	1.01
ACCAUGCAGGUGGGCAUCUUUGGGAAGUGGGGCAAGGGGGUGAUAGGGAGGGGGGUAACACUUUGGGAACAGGUGGUCCCAGGUCGUUUC	0.75
UAACUUUAGAGGAGGAUCUGAUGGAUAUGGCGGUGGACGUGGAUUUGGGGAUGGCUAUAAUGGGUAUGGAGGAGGACCUGGAGGUGGCAA	0.42
ACCAUGCAGGUGGGCAUCUUUGGGAAGUGGGGCAAGGGGGGGAUAGGGAGGGGGGUAACACUUUGUGAACAGGUGGUCCCAGGUCGUUUC	0.744
UCCUCAAGUCCUGUGCUACACAUCGUAUGUACCGAAUCGGAGGAGGUUUGGAAAGUAUUAUGUUACGCCGUUCGGAUCUGCACUUCCAGC	-0.73
UGGCCCUGGUGGCAUGCGGGGAGGAAGACGUGGCCUCAUGGAUCGUGGUGGUCCCGGUGGAAUGUUCAGAGGUGGCCGUGGUGGAGACAG	-0.0676
UCCUGUGCUACACAUCGUAUGUACCGAAUCGGGCCCCCGGGGCCCCCGGGGCCCCCGGGGAAAGUAUUAUGUUACGCCGUUCGGAUCUGC	-0.688
GUCCUGUGCUACACAUCGUAUGUACCGAAUCGGGCCCCCGGGCCCCCGGGCCCCCGGGGAAAGUAUUAUGUUACGCCGUUCGGAUCUGCA	-0.827
UCCUGUGCUACACAUCGUAUGUACCGAAUCGGGGUUUUUUUGGGGAAAGGGGUUUGGGGAAAGUAUUAUGUUACGCCGUUCGGAUCUGCA	0.555
CACAGACAACACGCACCCACACAGACACAGAGAGAAGGGGUUGGGAUGGGGACAGGGUGCACAGCAGGGCGGGGUAGGACCCCAGCCCCU	1.16

Set 5
Target: CCNB1, cyclin fold, Cln2 fusion (human)
Method: yeast growth competition, sequencing
Sample: yeast
Setting: weak parent motif
Baseline: not given
Direction: higher = stronger binding
Starting sequence: CDT1 docking peptide (human); PPARRRLRLSVDE
Change	normalised enrichment score
D12A	1.72
R5K L9F	0.842
R5A L7A	0.174
E13A	1.09
R5K	0.58
S10A	0.365
P2A	0.489
V11A	0.416
R4A	0.314

Set 6
Target: Histone acetyltransferase KAT6A, winged helix 1, GST fusion (KAT6A, Homo sapiens, UniProt Q92794, residues 1-85)
Method: protein binding microarray
Molecule type: double-stranded DNA, one strand shown
Sample: in vitro
Concentration: not given
Setting: 8-mer, flanks averaged, mean of 2 arrays, mostly near background
Baseline: not given
Direction: higher = stronger binding
Residues (chain): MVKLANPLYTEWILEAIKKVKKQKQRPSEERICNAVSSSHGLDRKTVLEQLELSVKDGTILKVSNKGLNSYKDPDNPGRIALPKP
Strand	E-score
ATGAGTGC	-0.0168
AGCGCGTA	0.379
ACAAAGTG	-0.125
AACCGTCG	0.397
GGAGCTAC	-0.0259
CAGCACCC	0.07
ACCCTAAG	-0.28
CCTCGCCC	0.0714
GACCACAA	-0.11
AACTCGTA	-0.114
CACCCGAA	-0.0919
CTCTTCTC	0.0241
CATAACGC	0.11
CCCATTAA	-0.0578
CGATGAAA	-0.0237
GACGGATC	0.161
GCTATCAA	-0.0422
CCTGGGAC	-0.0352
AGCTGCAA	-0.0288
CTGGTCCA	-0.203
CCAAAAAC	-0.148
AGCACAAT	-0.212
CGAAACCA	-0.0596
CCGATCTA	0.00548
CTGAGCCC	-0.0388

A few entries again (set 3):
Strand	RBNS enrichment (R)
CUCUCCCCUUGGUCACCUCUGGAACAAACAGGUUCCUUCCCUGGGGUCCAUAGGGAGGGACCUCAUGGGGCUGUCACAUCCUAGCAACCUUCUUAGCCUCCUUCCUUCCU	0.582
UAGCUGCUAGGCAGACUGUUAAGUAUUAGGGGAAAAUUGCUCUUAAAUUUUCCUAGCUGUAAGCUUAAGUCUCCUUUGUAUCCCUCUGUUGGUGGGGAAAGGUGUCUUUC	0.868
GUAGCCUAAGUAGGUCGUGGCAAGGGCCUGAGGCCUGUUCCUCACAGGCUUCCAGGUUAGGCACUGUGAAUAGGCUCAGCUCCUCUAGAGAGCUGAAGCCAUCUGGUUCU	0.382
CUGACCCUUGAGUUAAUUUUAGCACAACUCAUUCUUCAGUGCCUCAUUAUGAAAGACAAAAAGCAUCACAAUAAGGCUUCCAGGUAGCCCUGUUCCCUAAUAGAAACAUU	0.548
ACCACUACACUUGUAUGGUUGAGUGUUUAAAAUGUCUAUCACCCUCACUUCAGAGUGUGACUCUUUAAAUAUUAAAAUAGAUACUAACUGUUCAUAGAACAGGCCGAUUC	0.228
CCAGAGAGGAGAGCCACUUACUGGCUUGUUCAGCUGCUUUCUUACAGAACAUAGCCUGCCAGCUCAUGGGUGCCAGUGGUUCUCAACUUGUGAGUUGCAACUCCUUUGUC	0.384
GGUGUCACAGUGUUUGGUUCUUUUGUUUUGUUUUUUAACACUUGUCUCCCCUCAUACACAAAAGUACAAUAUGAAGCCUUCAUUUAAUCUCUGCAGUUCAUCUCAUUUCA	0.713
GCAUGUAUUAUUUCUCCCAUGUAAGGACAAAGGGACAGAUUAUUAUUGUUAUUUCUGAGACAGAGUCUUGCUCUGUAGCUCAGGCUGGAGUGCAGUGGCUCAAUCUCAGC	4.72
GUUGUUCUUAUUCCUAGGUCAGGGUAGUACAAAUUACGGAAAGAGCCAGCGACGUGGUGGUCAUCAGAAUAACUACAAGCCAUACUGAGAGGCAGCAGGAGCGGCCGAGU	0.718
AGCUCUUCUAGCUGAAUCUGAAAUAUUACCCCUUGUCUAGAAAAAGGGGGGCAGUCAGAACAGCUGUUCCCCACUCCGUGGUUCUCAAAAUCAUAAACCAUGGCUACUCU	0.305
ACCUUCUUUGGGCCUCGGCCUCCUAAUCUGGGUAAUGGGGAGGACUUCAUUGGCAUUGUUAGUCCCACAGGCCAAGGAUAAGGUUGAAAUGAGACGGCUUGUGUGUGAAA	0.789
GACAAAUGAGUUGAUGGUCUAAAUUAUAAGAUUUGUGUCACAUUAUCUUGAUGCCAGUUUGCCAAAUCUGAUACUGUGAAAAAAUUUGAUAGCUUUUCUAAUGUCUGACU	0.588
